Results gathered from unrelated publications.
Parts stem from different laboratories: compare values within a part only.

Block 1
Target: RNA binding protein fox-1 homolog 2, RRM domain, GST-SBP tag (RBFOX2, Homo sapiens, UniProt O43251-10, residues 100-194)
Technique: RNA Bind-n-Seq
Molecule type: RNA
Sample: in vitro
Tested at: 365 nM
Notes: natural RNA segment, single round, ends assumed
Relative to: no-protein control
Direction: higher = stronger binding
Constant ends, left off below: GGGAGUUCUACAGUCCGACGAUC … UGGAAUUCUCGGGUGCCAA
Target sequence (chain): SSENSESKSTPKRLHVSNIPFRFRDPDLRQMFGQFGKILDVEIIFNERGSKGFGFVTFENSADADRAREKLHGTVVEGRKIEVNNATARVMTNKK
Sequence	RBNS enrichment (R)
CAGCUGCAGCAACUGCAGAUACUGCGGGCUGAGCAGGAGCAGUGGUGGCGCCUGCCCUGAGGCUGCCCUGCGAUGGCCUGGGUGGGAGAGCUGGGUCACCGGUGCCGAUG	0.321
CCUGGCGUGAUUGACGAUCUGAGUUUUAUCUCUCACACCUACAAGGUGGAAGAGGAGAACUGGCUCCCCACAGUUGUCCCCUGACCCUCACCCCUAACCCCCAAUCACAA	0.457
CCAUUCUAUCUUUGUAAAACAGACAAGAUAUGCACUUGACAUAGUAGCAAAUUGGUUCUGAAUUAUGCAACUGUUUGCUAUUUAGUAAACUAGCAAAUGAUGCAUGUAUU	1.22
GUUCACUGGCCCUACCCGAGACUGGUGAAACUGGAAGUCUUCACACUGGAGUUGCUGUUCCAGCUGGUCGCCCCUCACGGCACAGAGGGAACCUGAGAGCCAGAGACUUC	0.464
AACCACCCACCCCAUUGGGAGAAAAACCCAGACGCCAGGAAAAGAAGAAACAACAAAGGCAGGAGAACAGCCACUUUCAGACUUGAAAAUGACAAAACCCUCAGUUGAGC	0.35
UCUGAGUCGAUAGAAGCAGUGGUCAUCGUGUGUACUCCGACAUCUGAUGCUGUUCUCGAAAGAGAGACUCUCUGACAAUUUUUUUUUAACUUGAAUUUUUAGGUCAGCCC	0.538
UCAGAUUGUUGCUGCACAUAGUUGCCUUUGUAUCUCUGUAUGAAAUAAAAGGUCAUUUGUUCAUGUUUGUGUUUUUCUCAGUUUCAUUGUUAACAGUUCCUGCUAAACAC	0.422
ACUGCUAGUGUGAUUGGUUGAUCAGCAAAACAGCUGCUCUCAUUUUGUUUUGGAGGAACCCUGGUGGUUUGACAGCCAGGAGAAAGGCCAUAUGUGAAACCAGUCUCUUG	0.619
GCGCAGGCUGCAGUGAGCUCUGAUGGUACCACUGCACUCCAGCCUGGGUGACAGAGCGAGACCCUGUCUUAAAAAAAAAAACAAAACAAAACCAGCAUCUGUUACUGGAA	0.729
CACAAAAUGUAUUAUGGUGCCAUGGCUGUUAGUUUUUAGUGAGUGCUGUAGGAUUAAUUCGAAAAUAGGCAGAAUUCCAUUCCUCCCAAGGUGGCAAAAAUUAGCUAUAC	0.822
UAGUGUAAGAGCUGCCCGGCUCCCUGGAGUAAAGCGCUACACGCAAGUUCCCAUAAAGCAAACAGGGCUUCUACUUUGUCUGCUCGGUGACAGACAACCAAGUUUUCCUC	0.215
CACAGGCAAAACAGCUGAGUCCCCCGUGUGCUGCCCUGCUGCUGCCCCUCAGCCCAGCAGCCUGGGCUCCCAGUGCUGAGGCCCUCUGUUCAGGCCUCCGCCCACCCUGA	0.336

Block 2
Target: Protein C-ets-1 (ETS1, Homo sapiens, UniProt P14921, residues 1-441, K379A, full length assumed)
Technique: protein-binding microarray
Molecule type: double-stranded DNA, one strand shown
Sample: in vitro
Tested at: not given
Notes: k-mer, scored over probes, only values ≥0.25
Direction: higher = stronger binding
Construct (chain): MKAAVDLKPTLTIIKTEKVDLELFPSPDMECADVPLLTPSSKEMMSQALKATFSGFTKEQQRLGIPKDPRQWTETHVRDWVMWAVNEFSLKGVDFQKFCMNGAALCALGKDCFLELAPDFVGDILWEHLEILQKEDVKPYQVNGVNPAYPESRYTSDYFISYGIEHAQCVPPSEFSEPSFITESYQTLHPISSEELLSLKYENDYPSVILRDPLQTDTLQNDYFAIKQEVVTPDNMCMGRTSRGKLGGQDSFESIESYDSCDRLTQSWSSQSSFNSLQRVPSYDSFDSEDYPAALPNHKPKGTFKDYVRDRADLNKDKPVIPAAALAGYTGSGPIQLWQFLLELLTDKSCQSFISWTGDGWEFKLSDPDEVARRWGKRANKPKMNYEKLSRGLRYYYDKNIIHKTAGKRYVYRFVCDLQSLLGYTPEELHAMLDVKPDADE
Sequence	E-score
TATAGAAA	0.259
CACAGGTA	0.256
GATATTAC	0.268
CACCCCCG	0.279
CCGGAAAG	0.306
ACCACCGG	0.378
GGTCCTTA	0.262
ACCGACAT	0.419
AATAACGG	0.287
ATAAATGG	0.262
TGGGCCCA	0.297
AACACAGC	0.261
CCCGTCGG	0.286
AACGTCAT	0.252
GGTCGACC	0.257
CCCGCACC	0.301
ACCGTTCC	0.273

Block 3
Target: Histone acetyltransferase KAT6A, winged helix 2, GST fusion (KAT6A, Homo sapiens, UniProt Q92794, residues 85-181)
Technique: protein binding microarray
Molecule type: double-stranded DNA, one strand shown
Sample: in vitro
Tested at: not given
Notes: 8-mer, flanks averaged, mean of 2 arrays, mostly near background
Relative to: not given
Direction: higher = stronger binding
Residues (chain): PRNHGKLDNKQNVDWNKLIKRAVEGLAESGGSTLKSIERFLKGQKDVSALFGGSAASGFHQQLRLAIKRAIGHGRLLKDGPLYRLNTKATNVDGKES
Sequence	E-score
ACTCGTCG	-0.0149
GAGACCTA	-0.0563
CCTTTCTC	-0.0966
CGCGTTAA	-0.0117
ATTAGTTA	0.0898
ACTAAAGT	-0.0352
AACATGGG	-0.0491
GTATCGTA	0.0319
ATCTTCAC	0.045
CCAATGTA	-0.238
CTCGCGTA	-0.0236
TCGCGGAA	0.0662
AATTAGCC	0.144
CCTTAAAG	-0.0893
AACCCGGC	0.251
AAGGCTTA	-0.226
GTCTGATA	-0.166
CAATACTA	-0.0307
AAAATATT	-0.0105
AATCAGCG	0.103
AACGTCCT	-0.159
ATTAAACC	-0.000605
AAATGCAC	-0.0371
GGCATTAA	-0.00146
ATCTGAGC	-0.00838

Block 4
Target: Runt-related transcription factor 1, full length (RUNX1, Homo sapiens, UniProt Q01196-8, residues 1-480)
Technique: protein-binding microarray
Molecule type: hairpin DNA
Sample: in vitro
Tested at: not given
Notes: whole hairpin DNA, median over replicate spots
Relative to: not given
Direction: higher = stronger binding
Sequence	median fluorescence
CTCAGTCGTGTGGGCTGGACTCCTGTCCAGCCCACACGACTGAGACACTC (5mC at 37)	1940 a.u.
GAGGCCTGTTGCCGTTGGCCTCCTGGCCAACGGCAACAGGCCTCACACTC (5mC at 13 31)	1760 a.u.
CTCAGTTCTGTGGGCCGGACTCCTGTCCGGCCCACAGAACTGAGACACTC	1900 a.u.
GAGGCCTGTTCTGGTTGGCCTCCTGGCCAACCAGAACAGGCCTCACACTC	1750 a.u.
CTCAGTTCTCTGGGCTGGACTCCTGTCCAGCCCAGAGAACTGAGACACTC	1580 a.u.
GAGGCCTGTCGCGCGTGGCCTCCTGGCCACGCGCGACAGGCCTCACACTC (5mC at 14)	1990 a.u.
GAGGCCCAACCCGAACAGCCTCCTGGCTGTTCGGGTTGGGCCTCACACTC (5mC at 32)	1940 a.u.
GAGGCCTGTTGCGCTTGGCCTCCTGGCCAAGCGCAACAGGCCTCACACTC (5mC at 14)	1690 a.u.
GAGGCCTGTTGCGGGTGGCCTCCTGGCCACCCGCAACAGGCCTCACACTC	2400 a.u.
GAGGCCCCGCCGCAACAGCCTCCTGGCTGTTGCGGCGGGGCCTCACACTC (5mC at 8 36)	2390 a.u.
GAGCCCTGTCGCGGTTGGCCTCCTGGCCAACCGCGACAGGGCTCACACTC (5mC at 4)	2490 a.u.
GAGGCCTGTTGCGGTTGGCCTCCTGGCCAACCGCAACAGGCCTCACACTC (5mC at 12)	3300 a.u.

Block 5
Target: Prothrombin, mature alpha-thrombin (F2, Homo sapiens, UniProt P00734)
Technique: aptamer microarray, sandwich
Molecule type: DNA with 2'F-ANA
Sample: in vitro
Tested at: 200 nM
Notes: whole 15-mer aptamer, many near background
Added: Cy3 exosite-II aptamer, 400 nM
Direction: higher = stronger binding
Sequence: GGTTGGTGTGGTTGG
Modification	mean fluorescence intensity [a.u.]
2'F-ANA at 3 4 5 6 7 8 10	49.9
2'F-ANA at 1 5 6 7 8 10 14	52.9
2'F-ANA at 1 3 4 5 8 11 13	60.7
2'F-ANA at 1 2 3 4 5 8 9 13 14 15	46.9
2'F-ANA at 1 3 5 8 11 12 15	105
2'F-ANA at 3 5 6 7 9 12 13 14 15	57.2
2'F-ANA at 3 7 10 12 13 14	481
2'F-ANA at 1 3 8 10 11 12 13 15	121
2'F-ANA at 1 2 3 4 8 10 11 15	64
2'F-ANA at 3 4 5 12 14 15	56
2'F-ANA at 1 2 6 8 10 11 12	60.4
2'F-ANA at 4 7 8 11 12 13	429
2'F-ANA at 3 6 8 11 13 15	843
2'F-ANA at 2 3 5 7 10 12 13 14	52.6
2'F-ANA at 1 2 3 7 8 11 12 13	351
2'F-ANA at 2 3 4 6 7 8 9 10 11 12 14	163
2'F-ANA at 2 3 5 7 8 9 10 11 13 15	66.5
2'F-ANA at 1 4 9 10 11 12 13 15	55.3
2'F-ANA at 1 2 3 4 5 6 11 13	70.1
2'F-ANA at 1 3 4 6 7 12 13 15	228
2'F-ANA at 3 4 7 8 10 11 12 13 14 15	176
2'F-ANA at 1 2 3 4 6 9 11 14	55
2'F-ANA at 2 7 9 12 13 14 15	173
2'F-ANA at 1 2 7 8 10	56.7
2'F-ANA at 1 3 4 9 10 11	95.2

Block 6
Target: Sal-like protein 4, full length isoform A (SALL4, Homo sapiens, UniProt Q9UJQ4, residues 1-1053)
UniProt Q9UJQ4, sequence (whole entry, looked up): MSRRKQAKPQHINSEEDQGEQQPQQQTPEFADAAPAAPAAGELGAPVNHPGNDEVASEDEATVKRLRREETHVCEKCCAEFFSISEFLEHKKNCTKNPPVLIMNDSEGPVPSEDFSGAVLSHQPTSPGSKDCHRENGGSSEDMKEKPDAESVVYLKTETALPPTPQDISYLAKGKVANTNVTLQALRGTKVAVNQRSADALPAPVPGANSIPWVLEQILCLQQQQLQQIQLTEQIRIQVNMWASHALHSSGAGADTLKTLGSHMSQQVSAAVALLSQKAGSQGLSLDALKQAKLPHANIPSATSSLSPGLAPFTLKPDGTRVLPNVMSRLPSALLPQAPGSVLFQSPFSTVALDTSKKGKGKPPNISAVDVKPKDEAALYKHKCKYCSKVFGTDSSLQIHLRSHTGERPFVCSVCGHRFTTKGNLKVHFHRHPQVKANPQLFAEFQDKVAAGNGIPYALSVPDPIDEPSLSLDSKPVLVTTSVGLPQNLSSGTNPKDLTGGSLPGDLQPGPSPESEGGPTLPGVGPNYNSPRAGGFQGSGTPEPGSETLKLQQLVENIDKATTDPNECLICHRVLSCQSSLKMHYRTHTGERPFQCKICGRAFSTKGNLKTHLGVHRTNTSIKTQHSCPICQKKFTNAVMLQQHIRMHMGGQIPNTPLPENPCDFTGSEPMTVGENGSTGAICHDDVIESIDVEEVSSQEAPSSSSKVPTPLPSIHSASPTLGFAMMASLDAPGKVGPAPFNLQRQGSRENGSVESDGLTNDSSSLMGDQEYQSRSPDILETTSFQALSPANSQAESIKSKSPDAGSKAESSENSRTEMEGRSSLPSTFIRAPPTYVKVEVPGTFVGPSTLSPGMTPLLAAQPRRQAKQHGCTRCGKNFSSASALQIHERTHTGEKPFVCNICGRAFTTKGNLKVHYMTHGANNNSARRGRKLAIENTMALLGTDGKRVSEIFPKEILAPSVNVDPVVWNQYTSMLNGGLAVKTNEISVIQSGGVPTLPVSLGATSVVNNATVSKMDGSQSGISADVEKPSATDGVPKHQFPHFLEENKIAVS
Technique: universal PBM
Molecule type: double-stranded DNA, one strand shown
Sample: in vitro
Tested at: 600 nM
Notes: 8-mer, flanks averaged, mean of replicates
Direction: higher = stronger binding
Sequence	E-score
CTTCCTTA	0.0398
AGCACCCC	-0.26
ACCCACGG	-0.336
CCGATGCA	-0.214
CTTAGACA	-0.0534
CCTCTCCG	-0.357
AACCGGTC	-0.0778
GCCCCTAA	-0.243
AAGGCGTG	-0.244
CGCACAAA	-0.014
CATCTGGC	-0.151
AAGGGCCG	-0.362
AATCCAGT	-0.0124
AGAACTAG	-0.0379
AAAGTCTT	0.0972
GTGGGGGA	-0.134
CTCTACGA	0.0334
CGCGTAGC	-0.272
CAAATGCA	0.143
GCCCTGCC	-0.318
GAGACGTA	-0.0282
AGGTAAAA	0.184
ATACCTAA	0.275

Excerpt of the above (block 5):
Modification	mean fluorescence intensity [a.u.]
2'F-ANA at 1 2 7 8 10	56.7
2'F-ANA at 1 2 3 4 6 9 11 14	55
2'F-ANA at 1 3 4 6 7 12 13 15	228
2'F-ANA at 1 2 3 7 8 11 12 13	351
2'F-ANA at 3 4 7 8 10 11 12 13 14 15	176
2'F-ANA at 3 6 8 11 13 15	843
2'F-ANA at 2 3 5 7 10 12 13 14	52.6
2'F-ANA at 3 7 10 12 13 14	481
2'F-ANA at 3 4 5 12 14 15	56
2'F-ANA at 2 7 9 12 13 14 15	173
2'F-ANA at 3 4 5 6 7 8 10	49.9
2'F-ANA at 1 4 9 10 11 12 13 15	55.3
2'F-ANA at 1 2 3 4 5 8 9 13 14 15	46.9
2'F-ANA at 1 3 5 8 11 12 15	105
2'F-ANA at 1 3 8 10 11 12 13 15	121
2'F-ANA at 1 2 3 4 5 6 11 13	70.1
2'F-ANA at 2 3 5 7 8 9 10 11 13 15	66.5
2'F-ANA at 1 3 4 5 8 11 13	60.7
2'F-ANA at 1 5 6 7 8 10 14	52.9
